{"data": "Measured values collected from several papers", "read-out": "cell growth or viability", "note": "Protocols differ between the studies behind these lines."}
{"SMILES": "CN(C)CC1(NC(=O)c2ccc(-c3nc4ccc5[nH]ncc5c4c4c3CCCC4)cc2)CC1", "cell line": "K562", "assay": "resazurin", "setting": "72 h", "quantity": "GI50", "value": "5.3 µM"}
{"SMILES": "CCCn1cnc2ccc(-c3ccc(N4CCCCCC4=O)nc3)cc2c1=O", "cell line": "HCC827", "assay": "CCK-8", "setting": "72 h", "quantity": "IC50", "value": "> 10 µM"}
{"SMILES": "FC(F)(F)C1(Nc2ccnc(Nc3cccc(-c4cccnc4)c3)n2)CC1", "cell line": "BJ", "assay": "ATP luminescence", "setting": "72 h", "quantity": "EC50", "value": "> 7 µM"}
{"SMILES": "O=C(Nc1ccc(Oc2nnc(-c3ccc(Cl)cc3)c3ccccc23)cc1)c1cccc([N+](=O)[O-])c1", "cell line": "HepG2", "assay": "MTT", "setting": "1.25 µM", "quantity": "cell death", "value": "48.2%"}
{"SMILES": "COc1ccc(NC(=O)c2c(Nc3ccccc3)sc(C(=O)NN=Cc3ccc(C)cc3)c2NC(C)=O)cc1", "cell line": "HCT-116", "assay": "SRB", "setting": "1 nM, 48 h", "quantity": "viability", "value": "100%"}
{"SMILES": "CCC(=CCc1c(O)cc2c(c1O)C(=O)C[C@@H](c1ccc(O)cc1)O2)CC", "cell line": "HeLa", "assay": "MTT", "setting": "12.5 µM, 48 h", "quantity": "inhibition", "value": "7.15%"}
{"SMILES": "CCCCC(=O)Nc1ccc(-c2ccc3ncn(CCC)c(=O)c3c2)cc1", "cell line": "HCC827", "assay": "CCK-8", "setting": "72 h", "quantity": "IC50", "value": "1.8 µM"}
{"SMILES": "COc1ccc(NC(=O)c2c(Nc3ccccc3)sc(C(=O)NN=Cc3ccc(Br)cc3)c2NC(C)=O)cc1", "cell line": "HCT-116", "assay": "SRB", "setting": "100 µM, 48 h", "quantity": "viability", "value": "47.3%"}
{"SMILES": "Fc1ccc(Nc2nccc(NC3CCCCC3)n2)cc1", "cell line": "BJ", "assay": "ATP luminescence", "setting": "72 h", "quantity": "EC50", "value": "> 6 µM"}
{"SMILES": "COc1ccc(NC(=O)c2c(Nc3ccccc3)sc(C#N)c2NC(=O)CNc2ccc(Cl)cc2)cc1", "cell line": "HCT-116", "assay": "SRB", "setting": "1 nM, 48 h", "quantity": "viability", "value": "100%"}
{"SMILES": "C=C(F)C(=O)N1CCN(c2nc(OC[C@@H]3CCCN3C)nc3c2CCN(c2cccc4cccc(Cl)c24)C3)C[C@@H]1CC#N", "cell line": "SW1573", "assay": "ATP luminescence", "quantity": "IC50", "value": "> 10 µM"}
{"SMILES": "C#C[C@@]1(O)[C@@H](CO)O[C@@H](n2cc(Cl)c3c(N)ncnc32)[C@@H]1O", "cell line": "Malme-3M", "assay": "SRB", "quantity": "GI50", "value": "0.223 µM"}
{"SMILES": "CN(C)CCNC(=O)c1ccc(-c2nc3ccc4[nH]ncc4c3c3c2CC3)cc1", "cell line": "K562", "assay": "resazurin", "setting": "72 h", "quantity": "GI50", "value": "6.6 µM"}
{"SMILES": "CNC(=O)c1cc(Oc2ccc(NC(=O)Nc3ccc(Cl)c(C(F)(F)F)c3)cc2)ccn1", "cell line": "HCT-116", "assay": "SRB", "setting": "100 µM, 48 h", "quantity": "viability", "value": "34.2%"}
{"SMILES": "O=C(NCCCN1CCCCC1)c1ccc(-c2nc3ccc4[nH]ncc4c3c3c2CCCC3)cc1", "cell line": "K562", "assay": "resazurin", "setting": "72 h", "quantity": "GI50", "value": "> 10 µM"}
{"SMILES": "Nc1nc2ccc(-c3c/c(=N\\c4ccccc4NC(=O)C4CCNC4)c4ccccc4o3)cc2o1 (centres unmarked)", "cell line": "NCI-H1975", "assay": "CCK-8", "setting": "1 µM", "quantity": "inhibition", "value": "40.1%"}
{"SMILES": "COc1ccc(NC(=O)c2c(Nc3ccccc3)sc(C(=O)NN=Cc3ccc(Cl)cc3)c2NC(C)=O)cc1", "cell line": "HCT-116", "assay": "SRB", "setting": "0.1 µM, 48 h", "quantity": "viability", "value": "82.5%"}
{"SMILES": "COCC(C)Nc1ccnc(Nc2cccc(-c3cccnc3)c2)n1 (centres unmarked)", "cell line": "BJ", "assay": "ATP luminescence", "setting": "72 h", "quantity": "EC50", "value": "> 23 µM"}
{"SMILES": "CCCCC(=O)Nc1ccc(-c2ccc3ncn(CC)c(=O)c3c2)cn1", "cell line": "HCC827", "assay": "CCK-8", "setting": "72 h", "quantity": "IC50", "value": "0.16 µM"}
{"SMILES": "c1cncc(-c2cccc(Nc3nccc(NC4CCCC4)n3)c2)c1", "cell line": "BJ", "assay": "ATP luminescence", "setting": "72 h", "quantity": "EC50", "value": "11 µM"}
{"SMILES": "NCCC(=O)Nc1ccccc1/N=c1\\cc(-c2ccc3c(c2)OCO3)oc2ccccc12", "cell line": "NCI-H1975", "assay": "CCK-8", "setting": "1 µM", "quantity": "inhibition", "value": "4.64%"}
{"SMILES": "CC(=NNC(=O)c1ccc(N)cc1)c1ccc(Nc2nnc(-c3ccc(Cl)cc3)c3ccccc23)cc1", "cell line": "HepG2", "assay": "MTT", "setting": "5 µM", "quantity": "cell death", "value": "84.2%"}
{"SMILES": "CCCCC(=O)Nc1cc(F)c(-c2ccc3ncn(CCC)c(=O)c3c2)cn1", "cell line": "NCI-H1975", "assay": "CCK-8", "setting": "72 h", "quantity": "IC50", "value": "6.62 µM"}
{"SMILES": "O=C(Nc1ccccc1/N=c1\\cc(-c2ccc3c(c2)OCO3)oc2ccccc12)N1CCOCC1", "cell line": "NCI-H1975", "assay": "CCK-8", "setting": "1 µM", "quantity": "inhibition", "value": "0.46%"}
{"SMILES": "CCCCC(=O)Nc1ccc(-c2ccc3ncn(C4CC4)c(=O)c3c2)cn1", "cell line": "NCI-H1975", "assay": "CCK-8", "setting": "72 h", "quantity": "IC50", "value": "3.23 µM"}
{"SMILES": "CC(C)Nc1ccnc(Nc2ccccc2-c2ccccc2)n1", "cell line": "BJ", "assay": "ATP luminescence", "setting": "72 h", "quantity": "EC50", "value": "> 10 µM"}
{"SMILES": "Cc1ccccc1NC(=O)Nc1ccc(-c2ccc3ncn(Cc4ccccc4)c(=O)c3c2)cn1", "cell line": "HCC827", "assay": "CCK-8", "setting": "72 h", "quantity": "IC50", "value": "2.46 µM"}
{"SMILES": "NCC(=O)Nc1ccccc1/N=c1\\cc(-c2ccc3c(c2)OCO3)oc2c([N+](=O)[O-])cccc12", "cell line": "NCI-H1975", "assay": "CCK-8", "setting": "1 µM", "quantity": "inhibition", "value": "6.59%"}
{"SMILES": "CCCn1cnc2ccc(-c3ccc(NC(=O)CC)nc3)cc2c1=O", "cell line": "HCC827", "assay": "CCK-8", "setting": "72 h", "quantity": "IC50", "value": "0.95 µM"}
{"SMILES": "c1cncc(-c2cccc(Nc3nccc(NC4CCNCC4)n3)c2)c1", "cell line": "BJ", "assay": "ATP luminescence", "setting": "72 h", "quantity": "EC50", "value": "> 10 µM"}
{"SMILES": "O=C(Nc1ccc(Oc2nnc(-c3ccc(Cl)cc3)c3ccccc23)cc1)c1ccccc1", "cell line": "MCF7", "assay": "MTT", "setting": "5 µM", "quantity": "cell death", "value": "93.1%"}
{"SMILES": "COc1ccc(NC(=O)c2c(Nc3ccccc3)sc(C#N)c2NC(=O)CNc2ccc([N+](=O)[O-])cc2)cc1", "cell line": "HCT-116", "assay": "SRB", "setting": "100 µM, 48 h", "quantity": "viability", "value": "41.3%"}
{"SMILES": "c1cncc(-c2cccc(Oc3nccc(OC4CCCCC4)n3)c2)c1", "cell line": "BJ", "assay": "ATP luminescence", "setting": "72 h", "quantity": "EC50", "value": "> 13 µM"}
{"SMILES": "CCCCCC(=O)Nc1ccc(-c2ccc3ncn(CCCC)c(=O)c3c2)cn1", "cell line": "HCC827", "assay": "CCK-8", "setting": "72 h", "quantity": "IC50", "value": "2.41 µM"}
{"SMILES": "Cc1n[nH]c2ccc3nc(-c4ccc(C(=O)N(C)CCN(C)C)cc4)c4c(c3c12)CCC(C)(C)C4", "cell line": "K562", "assay": "resazurin", "setting": "72 h", "quantity": "GI50", "value": "5.9 µM"}
{"SMILES": "NCCC(=O)Nc1ccccc1/N=c1\\cc(-c2ccc3c(c2)OCCO3)oc2cc(F)ccc12", "cell line": "NCI-H1975", "assay": "CCK-8", "setting": "1 µM", "quantity": "inhibition", "value": "-4.29%"}
{"SMILES": "CC(=NNC(N)=S)c1ccc(Nc2nnc(-c3ccc(Cl)cc3)c3ccccc23)cc1", "cell line": "HepG2", "assay": "MTT", "setting": "10 µM", "quantity": "cell death", "value": "92.7%"}
{"SMILES": "CC(C)Nc1ccnc(Nc2ccc(-c3ccccc3)cc2)n1", "cell line": "BJ", "assay": "ATP luminescence", "setting": "72 h", "quantity": "EC50", "value": "> 26 µM"}
{"SMILES": "COc1ccc(NC(=O)c2c(Nc3ccccc3)sc(C#N)c2NC(=O)CNc2ccc(Br)cc2)cc1", "cell line": "HCT-116", "assay": "SRB", "setting": "10 nM, 48 h", "quantity": "viability", "value": "95.2%"}
{"SMILES": "Cc1n[nH]c2ccc3nc(-c4ccc(C(=O)NCCN(C)C)cn4)c4c(c3c12)CCCCC4", "cell line": "K562", "assay": "resazurin", "setting": "72 h", "quantity": "GI50", "value": "6.7 µM"}
{"SMILES": "COc1ccc2/c(=N/c3ccccc3NC(=O)CN)cc(-c3ccc4c(c3)OCCO4)oc2c1", "cell line": "MOLM-13", "assay": "CCK-8", "setting": "1 µM", "quantity": "inhibition", "value": "-0.02%"}
{"SMILES": "CC(=NNC(=O)c1ccccc1Cl)c1ccc(Nc2nnc(-c3ccc(Cl)cc3)c3ccccc23)cc1", "cell line": "HepG2", "assay": "MTT", "setting": "0.625 µM", "quantity": "cell death", "value": "71.7%"}
{"SMILES": "COc1ccc(NC(=O)c2c(Nc3ccccc3)sc(C#N)c2NC(=O)CNc2ccccc2)cc1", "cell line": "HCT-116", "assay": "SRB", "setting": "1 µM, 48 h", "quantity": "viability", "value": "91.1%"}
{"SMILES": "C[C@H](N)C(=O)Nc1ccccc1/N=c1\\cc(-c2ccc3c(c2)OCCO3)oc2c([N+](=O)[O-])cccc12", "cell line": "MOLM-13", "assay": "CCK-8", "setting": "1 µM", "quantity": "inhibition", "value": "-0.07%"}
{"SMILES": "CC(=NNC(=O)c1ccccc1Br)c1ccc(Nc2nnc(-c3ccc(Cl)cc3)c3ccccc23)cc1", "cell line": "HepG2", "assay": "MTT", "setting": "10 µM", "quantity": "cell death", "value": "95.5%"}
{"SMILES": "C[C@H](N)C(=O)Nc1ccccc1/N=c1\\cc(-c2ccc3c(c2)OCO3)oc2ccccc12", "cell line": "MOLM-13", "assay": "CCK-8", "setting": "1 µM", "quantity": "inhibition", "value": "1.12%"}
{"SMILES": "CC(=NNC(=O)c1ccccc1O)c1ccc(Nc2nnc(-c3ccc(Cl)cc3)c3ccccc23)cc1", "cell line": "HepG2", "assay": "MTT", "setting": "0.312 µM", "quantity": "cell death", "value": "1.77%"}
{"note": "A few entries again:"}
{"SMILES": "c1cncc(-c2cccc(Oc3nccc(OC4CCCCC4)n3)c2)c1", "cell line": "BJ", "assay": "ATP luminescence", "setting": "72 h", "quantity": "EC50", "value": "> 13 µM"}
{"SMILES": "COc1ccc2/c(=N/c3ccccc3NC(=O)CN)cc(-c3ccc4c(c3)OCCO4)oc2c1", "cell line": "MOLM-13", "assay": "CCK-8", "setting": "1 µM", "quantity": "inhibition", "value": "-0.02%"}
{"SMILES": "O=C(Nc1ccc(Oc2nnc(-c3ccc(Cl)cc3)c3ccccc23)cc1)c1ccccc1", "cell line": "MCF7", "assay": "MTT", "setting": "5 µM", "quantity": "cell death", "value": "93.1%"}
{"SMILES": "Cc1n[nH]c2ccc3nc(-c4ccc(C(=O)N(C)CCN(C)C)cc4)c4c(c3c12)CCC(C)(C)C4", "cell line": "K562", "assay": "resazurin", "setting": "72 h", "quantity": "GI50", "value": "5.9 µM"}
